Experimental data pooled from the literature.
Compare with care: the assays were run in different laboratories. Numbers after ± are the reported error.
ppa: Inorganic pyrophosphatase (ppa, Escherichia coli, UniProt P0A7A9)
Chain of UniProt P0A7A9 (whole entry, looked up): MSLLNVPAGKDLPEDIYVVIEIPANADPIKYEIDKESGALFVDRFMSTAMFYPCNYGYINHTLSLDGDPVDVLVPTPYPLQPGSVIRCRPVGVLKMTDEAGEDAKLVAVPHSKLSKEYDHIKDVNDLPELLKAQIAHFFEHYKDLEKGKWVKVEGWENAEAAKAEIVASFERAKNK
TDP1: Tyrosyl-DNA phosphodiesterase 1 (TDP1, Homo sapiens, UniProt Q9NUW8)
Chain of UniProt Q9NUW8 (whole entry, looked up): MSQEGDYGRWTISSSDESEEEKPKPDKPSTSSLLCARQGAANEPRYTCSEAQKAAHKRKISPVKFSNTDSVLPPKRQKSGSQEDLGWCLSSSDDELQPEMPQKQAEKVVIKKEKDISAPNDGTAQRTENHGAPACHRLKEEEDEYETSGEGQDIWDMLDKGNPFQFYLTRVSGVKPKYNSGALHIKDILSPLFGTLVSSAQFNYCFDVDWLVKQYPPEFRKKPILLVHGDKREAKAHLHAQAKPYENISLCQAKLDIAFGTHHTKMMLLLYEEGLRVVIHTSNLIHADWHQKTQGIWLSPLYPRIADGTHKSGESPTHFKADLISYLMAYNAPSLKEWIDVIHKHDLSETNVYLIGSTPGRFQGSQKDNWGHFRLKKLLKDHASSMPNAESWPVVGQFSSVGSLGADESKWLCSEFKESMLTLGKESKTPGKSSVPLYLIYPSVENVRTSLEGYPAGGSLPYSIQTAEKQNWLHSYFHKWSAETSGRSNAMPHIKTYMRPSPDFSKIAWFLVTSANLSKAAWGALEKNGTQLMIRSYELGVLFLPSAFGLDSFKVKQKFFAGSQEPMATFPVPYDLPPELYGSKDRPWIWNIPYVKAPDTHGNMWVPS
CCKAR: Cholecystokinin receptor type A (CCKAR, Homo sapiens, UniProt P32238)
Chain of UniProt P32238 (whole entry, looked up): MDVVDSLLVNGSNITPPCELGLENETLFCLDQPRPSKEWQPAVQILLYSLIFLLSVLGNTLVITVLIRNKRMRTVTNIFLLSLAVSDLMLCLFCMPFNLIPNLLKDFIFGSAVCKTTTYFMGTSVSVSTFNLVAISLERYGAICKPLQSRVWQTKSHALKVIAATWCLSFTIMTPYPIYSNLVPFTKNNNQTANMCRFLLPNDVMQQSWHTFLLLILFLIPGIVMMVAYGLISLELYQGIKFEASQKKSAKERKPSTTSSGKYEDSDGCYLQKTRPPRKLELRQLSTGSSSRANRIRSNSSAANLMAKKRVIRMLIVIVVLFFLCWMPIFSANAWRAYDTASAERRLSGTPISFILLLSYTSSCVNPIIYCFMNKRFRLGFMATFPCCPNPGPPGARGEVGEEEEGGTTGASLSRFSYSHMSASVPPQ
EHMT1: Histone-lysine N-methyltransferase EHMT1 (EHMT1, Homo sapiens, UniProt Q9H9B1)
Chain of UniProt Q9H9B1 (whole entry, looked up): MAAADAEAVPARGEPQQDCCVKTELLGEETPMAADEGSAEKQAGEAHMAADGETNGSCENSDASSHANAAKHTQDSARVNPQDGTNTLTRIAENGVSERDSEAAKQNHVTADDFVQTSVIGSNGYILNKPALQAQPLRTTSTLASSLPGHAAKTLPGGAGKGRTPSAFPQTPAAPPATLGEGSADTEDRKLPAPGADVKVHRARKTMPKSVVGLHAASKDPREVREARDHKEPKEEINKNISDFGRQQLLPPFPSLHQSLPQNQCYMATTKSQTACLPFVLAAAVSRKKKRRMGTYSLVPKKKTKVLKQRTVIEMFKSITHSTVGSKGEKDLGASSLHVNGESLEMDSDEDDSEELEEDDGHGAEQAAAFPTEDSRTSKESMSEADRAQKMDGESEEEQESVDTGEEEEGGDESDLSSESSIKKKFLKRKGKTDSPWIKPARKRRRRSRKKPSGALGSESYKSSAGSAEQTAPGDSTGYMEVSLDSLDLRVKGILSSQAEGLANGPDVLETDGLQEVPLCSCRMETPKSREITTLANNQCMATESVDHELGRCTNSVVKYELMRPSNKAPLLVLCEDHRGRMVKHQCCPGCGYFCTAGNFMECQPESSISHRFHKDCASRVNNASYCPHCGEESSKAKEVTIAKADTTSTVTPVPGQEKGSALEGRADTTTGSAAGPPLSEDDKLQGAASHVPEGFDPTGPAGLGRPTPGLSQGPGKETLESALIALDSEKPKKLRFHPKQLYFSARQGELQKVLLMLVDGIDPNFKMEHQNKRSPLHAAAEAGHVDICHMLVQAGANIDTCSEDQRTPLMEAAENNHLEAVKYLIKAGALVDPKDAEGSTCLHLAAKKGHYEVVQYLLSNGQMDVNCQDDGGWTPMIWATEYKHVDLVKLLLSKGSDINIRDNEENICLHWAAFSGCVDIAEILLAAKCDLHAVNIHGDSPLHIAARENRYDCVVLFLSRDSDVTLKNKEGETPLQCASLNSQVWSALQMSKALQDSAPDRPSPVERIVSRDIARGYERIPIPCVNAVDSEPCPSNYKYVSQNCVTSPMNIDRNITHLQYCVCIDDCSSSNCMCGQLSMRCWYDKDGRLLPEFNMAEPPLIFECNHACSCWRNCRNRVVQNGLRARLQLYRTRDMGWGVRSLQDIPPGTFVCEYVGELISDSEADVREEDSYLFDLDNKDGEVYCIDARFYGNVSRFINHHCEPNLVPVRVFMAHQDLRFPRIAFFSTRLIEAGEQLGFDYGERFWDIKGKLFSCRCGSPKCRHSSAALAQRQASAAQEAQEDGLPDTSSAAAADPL
OfChi-h: Chitinase (OfChi-h, Ostrinia furnacalis, UniProt Q4AE59)
Chain of UniProt P13945 (whole entry, looked up): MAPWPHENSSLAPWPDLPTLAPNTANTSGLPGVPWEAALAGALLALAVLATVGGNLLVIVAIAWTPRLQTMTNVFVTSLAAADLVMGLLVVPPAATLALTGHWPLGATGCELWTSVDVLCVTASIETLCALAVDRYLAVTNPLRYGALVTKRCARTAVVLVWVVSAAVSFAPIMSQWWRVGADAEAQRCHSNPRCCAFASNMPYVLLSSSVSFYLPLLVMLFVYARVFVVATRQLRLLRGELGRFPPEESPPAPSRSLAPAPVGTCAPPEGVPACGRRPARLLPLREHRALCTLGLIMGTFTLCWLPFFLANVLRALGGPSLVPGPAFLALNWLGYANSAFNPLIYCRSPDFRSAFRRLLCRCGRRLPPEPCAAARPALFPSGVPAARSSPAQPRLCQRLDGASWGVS
Chain of UniProt P29371 (whole entry, looked up): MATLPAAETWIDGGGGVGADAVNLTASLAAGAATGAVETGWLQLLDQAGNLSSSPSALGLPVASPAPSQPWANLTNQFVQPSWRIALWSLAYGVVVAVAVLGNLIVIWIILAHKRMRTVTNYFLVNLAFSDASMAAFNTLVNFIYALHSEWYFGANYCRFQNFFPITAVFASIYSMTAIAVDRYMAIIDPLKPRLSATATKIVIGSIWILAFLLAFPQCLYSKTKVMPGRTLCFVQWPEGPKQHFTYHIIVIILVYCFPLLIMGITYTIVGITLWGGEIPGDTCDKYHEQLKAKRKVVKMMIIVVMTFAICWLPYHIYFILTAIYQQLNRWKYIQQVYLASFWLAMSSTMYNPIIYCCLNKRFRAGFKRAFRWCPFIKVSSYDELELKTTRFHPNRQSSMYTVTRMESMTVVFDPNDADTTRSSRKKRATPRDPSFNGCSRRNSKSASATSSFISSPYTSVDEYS
Chain of UniProt Q7RTN6 (whole entry, looked up): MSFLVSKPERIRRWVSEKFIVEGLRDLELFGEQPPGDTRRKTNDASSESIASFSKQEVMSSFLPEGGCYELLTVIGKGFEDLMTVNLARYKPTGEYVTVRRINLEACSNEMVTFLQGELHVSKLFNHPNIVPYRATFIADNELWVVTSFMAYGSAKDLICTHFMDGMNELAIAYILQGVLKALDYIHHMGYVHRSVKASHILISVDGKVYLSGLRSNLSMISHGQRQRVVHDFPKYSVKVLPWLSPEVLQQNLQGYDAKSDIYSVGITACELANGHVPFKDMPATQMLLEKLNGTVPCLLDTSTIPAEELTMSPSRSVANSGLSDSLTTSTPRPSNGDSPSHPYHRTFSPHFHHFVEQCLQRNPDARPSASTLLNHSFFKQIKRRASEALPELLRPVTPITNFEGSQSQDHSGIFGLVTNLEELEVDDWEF
Chain of UniProt Q08499 (whole entry, looked up): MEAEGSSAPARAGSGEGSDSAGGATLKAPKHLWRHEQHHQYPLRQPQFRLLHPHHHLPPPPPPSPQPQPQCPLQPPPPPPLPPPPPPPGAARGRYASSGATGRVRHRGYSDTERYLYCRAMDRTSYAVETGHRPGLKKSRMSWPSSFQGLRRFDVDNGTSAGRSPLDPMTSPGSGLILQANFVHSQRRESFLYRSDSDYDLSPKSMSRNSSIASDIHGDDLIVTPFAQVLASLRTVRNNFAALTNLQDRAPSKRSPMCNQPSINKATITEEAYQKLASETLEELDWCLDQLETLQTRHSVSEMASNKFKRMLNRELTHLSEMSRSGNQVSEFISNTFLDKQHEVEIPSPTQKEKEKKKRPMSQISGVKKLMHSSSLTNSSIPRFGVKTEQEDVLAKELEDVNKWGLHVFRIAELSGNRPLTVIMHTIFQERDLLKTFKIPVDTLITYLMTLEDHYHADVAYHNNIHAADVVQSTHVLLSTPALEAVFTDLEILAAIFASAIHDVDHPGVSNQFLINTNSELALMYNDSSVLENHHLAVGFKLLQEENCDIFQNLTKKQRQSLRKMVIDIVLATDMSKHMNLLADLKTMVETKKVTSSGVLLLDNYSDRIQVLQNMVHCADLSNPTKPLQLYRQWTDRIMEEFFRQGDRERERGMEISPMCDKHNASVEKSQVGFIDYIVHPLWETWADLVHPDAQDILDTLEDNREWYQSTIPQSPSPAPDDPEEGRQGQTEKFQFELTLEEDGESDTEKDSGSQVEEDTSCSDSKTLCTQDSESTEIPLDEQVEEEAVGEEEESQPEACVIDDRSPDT
Chain of UniProt Q5U3Y7 (whole entry, looked up): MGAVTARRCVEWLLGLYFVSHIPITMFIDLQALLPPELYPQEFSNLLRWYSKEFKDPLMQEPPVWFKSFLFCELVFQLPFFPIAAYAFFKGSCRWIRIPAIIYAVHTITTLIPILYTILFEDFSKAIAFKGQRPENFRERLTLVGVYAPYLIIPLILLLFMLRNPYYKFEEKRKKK
Chain of UniProt O75365 (whole entry, unmodified, looked up): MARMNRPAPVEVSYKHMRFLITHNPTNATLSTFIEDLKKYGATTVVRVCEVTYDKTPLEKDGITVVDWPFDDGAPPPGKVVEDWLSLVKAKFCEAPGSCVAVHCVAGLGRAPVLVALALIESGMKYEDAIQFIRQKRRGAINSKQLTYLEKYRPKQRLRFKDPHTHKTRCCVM

The inhibition of `CNc1sc(C(=O)c2ccc(OC)cc2)c(N)c1C#N` is reported as 37% (ppa; inhibitor, counter-screen, coupling enzyme alone; 30 µM).
`Cn1c(=O)n(C)c2cc([N+](=O)[O-])c(C=NOCc3ccc(-c4nc5cc(-c6ccccc6)ccn5c4Nc4ccc(C(=O)O)cc4)cc3)cc21` has an inhibition of 101% (TDP1; enzyme activity, inhibitor; 100 µM, unpurified compound).
`Cc1[nH]nc2c1N=C(c1ccccc1Cl)c1cnc(N3CCOCC3)cc1N2` has an inhibition of -3% (Adra1a (Rattus norvegicus, UniProt P43140); cell-free assay; 10 µM).
`CC1=NN(c2cccc(F)c2)C(=O)/C1=N\Nc1ccc(S(N)(=O)=O)cc1` gave an inhibition of 25.065 ± 0.000863% (bovine α-glucosidase; enzyme activity, inhibitor, glucose oxidase; 10 µg/mL, added: maltose).
`O=C(O)c1ccc(Nc2c(-c3ccccc3)nc3ccc(CON=CCc4ccccc4)cn23)cc1` (mixture of isomers) has an inhibition of 22.9% (TDP1; enzyme activity, inhibitor; 100 µM, unpurified compound).
`CC(=O)C12NC(C)(C)CC1(C)C(=O)C1=C2c2c(c3c4n2C(C)(C)CC2=C4C4(CC(C)(C)NC(C)(C4)C2=O)CC3(C)C)C(=O)C(C)(C)N1` (single isomer, unassigned; (+)) gave an inhibition of 3.06 ± 0.05% (CACNA1I (Homo sapiens, UniProt Q9P0X4); ion current, antagonist, whole-cell patch clamp; HEK293T; 10 µM).
The inhibition of `O=C(CSc1nnc(-c2ccco2)c(-c2ccco2)n1)c1cccs1` is reported as 8% (ppa; inhibitor, counter-screen, coupling enzyme alone; 30 µM).
`COc1ncc2nc(C)n(Cc3ncc(S(N)(=O)=O)cc3F)c2c1-c1ccccc1` has an inhibition of 1.35% (CCKAR; antagonist, cell-based; 10 µM).
The inhibition of `Cc1nc2c(F)cc(-c3nc(Nc4ccc(CNC(=O)CCCCCCC(=O)NO)cc4)ncc3F)cc2n1C(C)C` is reported as 3% (PIK3C2A (Homo sapiens, UniProt O00443); enzyme activity, inhibitor; 1 µM).
`C/C=C/C(=O)Nc1ccc2nc(NCCCCCN(C)C)nc(NCCCCCCN(C)C)c2c1` has an inhibition of 20% (EHMT1; enzyme activity, inhibitor, radiometric; 10 µM).
With `Oc1cc2c(cc1O)C(c1ccc3[nH]ccc3c1)NCC2` (stereo not shown) the inhibition was 33 ± 1.3% (tyrosinase; enzyme activity, inhibitor; 100 µM, added: levodopa).
`C[N+]1(Cc2ccc3ccccc3c2)CCN(CCCN2c3ccccc3Sc3ccc(Cl)cc32)CC1` has an inhibition of 34.7% (ppa; inhibitor, counter-screen, coupling enzyme alone; 30 µM).
The inhibition of `CO[C@@H](C)c1c(NC(=O)Nc2cnc(-n3nccn3)c(C(F)(F)F)c2)cnc2sc(C)nc12` is reported as 11.5% (TACR3 (Homo sapiens, UniProt P29371); ligand displacement, radioligand; 10 µM).
For `CC(=O)Nc1sc2c(c1SC#N)CCCC2`, the inhibition was 49.6% (ppa; inhibitor, counter-screen, coupling enzyme alone; 30 µM).
For `CC(=O)Nc1nc(C=NOCc2ccc3nc(-c4ccccc4)c(Nc4ccc(C(=O)O)cc4)n3c2)c(Br)s1` (mixture of isomers), the inhibition was 30.8% (TDP1; enzyme activity, inhibitor; 100 µM, unpurified compound).
The inhibition of `O=C(N/C(=C/c1ccc(Br)cc1)C(=O)N1CCCCC1)c1ccccc1` is reported as > 40% (KCNT1 (Homo sapiens, UniProt Q5JUK3); ion current, inhibitor, patch clamp; HEK293; 10 µM).
`CN(C)c1nc(NCc2ccc3ccccc3c2)c(/N=N/c2ccc(Cl)cc2)c(N(C)C)n1` gave an inhibition of 88.1% (OfChi-h; enzyme activity, inhibitor, fluorescence; 1 µM).
The inhibition of `COc1ccc(NC2(C#N)C(=O)Nc3ccccc32)cc1` (stereo not shown) is reported as 49.4% (Uncharacterized protein (Trypanosoma brucei brucei, UniProt Q386Q8); enzyme activity, inhibitor, coupled colorimetric; 30 µM, added: E. coli pyrophosphatase coupling).
With `O=C1c2sc(-c3ccc(N4CCC(CO)CC4)nc3F)nc2CCN1c1cccnc1` the inhibition was -15% (CCKAR; ligand displacement, radioligand; 1 µM).
`COc1cc([N+](=O)[O-])ccc1-n1c(C)cc(C=NOCc2ccc3nc(-c4ccccc4)c(Nc4ccc(C(=O)O)cc4)n3c2)c1C` (mixture of isomers) has an inhibition of 24.1% (TDP1; enzyme activity, inhibitor; 100 µM, unpurified compound).
`CCOC(=O)CCCCC1NCCc2ccc(O)c(O)c21` (stereo not shown) has an inhibition of 31.8 ± 2.24% (tyrosinase; enzyme activity, inhibitor; 100 µM, added: levodopa).
The inhibition of `CC(C)Cn1c(SCC(=O)N2CCc3ccccc3C2)nc2cc(Cl)ccc2c1=O` is reported as -13% (ADRB2 (Homo sapiens, UniProt P07550); ligand displacement, radioligand; 10 µM).
`COc1ccc(S(=O)(=O)N2CCc3ccccc3C2)cc1N1CCN(C(=O)c2ccc(F)cc2C(F)(F)F)CC1` has an inhibition of 4.7% (ADRB3 (Homo sapiens, UniProt P13945); ligand displacement, radioligand; 1 µM).
`CS(=O)(=O)Nc1cccc(-c2csc3cnc(Nc4ccc(N5CCN(CCCCCOc6cccc7c6C(=O)N(C6CCC(=O)NC6=O)C7=O)CC5)cc4)nc23)c1` (stereo not shown) gave an inhibition of 17.2% (ILK (Homo sapiens, UniProt Q13418); kinase probe labelling, binder, KiNativ ATP-acylphosphate LC-MS; MOLT-4 live cells; 1 µM).
`CCNc1sc(C(C)=O)c(N)c1C#N` has an inhibition of 39.5% (ppa; inhibitor, counter-screen, coupling enzyme alone; 30 µM).
`COc1cc(C=NOCc2ccc(-c3nc4cc(-c5ccccc5)ccn4c3Nc3ccc(C(=O)O)cc3)cc2)cc(I)c1OC` (mixture of isomers) has an inhibition of 39% (TDP1; enzyme activity, inhibitor; 100 µM, unpurified compound).
With `CC1Cc2ccccc2N1C(=O)CN1CCN(Cc2ccccc2)CC1` (stereo not shown) the inhibition was 29.4% (HTR4 (Homo sapiens, UniProt Q13639); radioligand binding; concentration not given).
`O=C(NCCCN1CCC2(CC1)OCc1ccccc12)C1CCCN1Cc1ccccc1` (stereo not shown) gave a Ki of 3.2 nM (Nociceptin receptor (OPRL1, Homo sapiens, UniProt P41146)).
`O=C1c2sc(-c3ccc(N4CCC(F)C4)nc3F)nc2CCN1c1cccnc1` (stereo not shown) has an inhibition of 13% (SLC5A7 (Homo sapiens, UniProt Q9GZV3); ligand displacement, radioligand; 1 µM).
`CCN1CCN(Cc2ccc(CNc3nc(N(C)C)nc(N(C)C)c3/N=N/c3ccc(Cl)cc3)cc2)CC1` has an inhibition of 49.2% (OfChi-h; enzyme activity, inhibitor, fluorescence; 1 µM).
`C=C1CC[C@H](OCCCNC(=O)CCOCCOCCOCCOCCOCCOCCOCCOCCOCCOCCOCCOCCOCCOCCOCCOCCOCCOCCOCCOCCOCCOCCOCCOCCOCCOCCOCCOCCOCCOCCOCCOCCOCCOCCOCCOCCNC(=O)CCN2C(=O)CC(SC[C@H](NC(=O)[C@H](Cc3ccccc3)NC(=O)[C@H](CC(N)=O)NC(=O)[C@H](Cc3c[nH]cn3)NC(=O)[C@@H](NC(=O)[C@H](CC(=O)O)NC(=O)[C@H](CCC(N)=O)NC(=O)[C@H](CC(C)C)NC(=O)[C@H](CCCCN)NC(=O)[C@H](CCCCN)NC(=O)[C@H](CCCNC(=N)N)NC(=O)[C@H](CC(C)C)NC(=O)[C@H](Cc3c[nH]c4ccccc34)NC(=O)[C@H](CCC(=O)O)NC(=O)[C@@H](NC(=O)[C@H](CCCNC(=N)N)NC(=O)[C@H](CCC(=O)O)NC(=O)[C@H](CCSC)NC(=O)[C@H](CO)NC(=O)[C@H](CC(N)=O)NC(=O)[C@H](CC(C)C)NC(=O)[C@H](Cc3c[nH]cn3)NC(=O)[C@H](CCCCN)NC(=O)CNC(=O)[C@H](CC(C)C)NC(=O)[C@H](CC(N)=O)NC(=O)[C@H](Cc3c[nH]cn3)NC(=O)[C@H](CCSC)NC(=O)[C@H](CC(C)C)NC(=O)[C@H](CCC(N)=O)NC(=O)[C@@H](NC(=O)[C@H](CCC(=O)O)NC(=O)[C@H](CO)NC(=O)[C@@H](NC(=O)[C@@H](N)CO)C(C)C)[C@@H](C)CC)C(C)C)C(C)C)C(=O)O)C2=O)C/C1=C/C=C1\CCC[C@]2(C)[C@@H]([C@H](C)CCCC(C)(C)O)CC[C@@H]12` (stereo partly shown) gave an AUC(0-t) of 2590 ng·h/mL (male cynomolgus monkey, plasma; intravenous, 0.02 mg/kg, single dose).
With `Cc1cc(C=NOCc2ccc3nc(-c4ccccc4)c(Nc4ccc(C(=O)O)cc4)n3c2)c(C)n1-c1ccc(C(=O)O)cc1` the inhibition was 73.5% (TDP1; enzyme activity, inhibitor; 100 µM, unpurified compound).
For `C[Si](C)(C)C[C@H](CN)CC(=O)O`, the inhibition was -1% (Tmem97 (Rattus norvegicus, UniProt Q5U3Y7); ligand displacement, radioligand; 250 µM).
With `Cn1c(/C=C/c2cn(C)c3ccccc23)nc2ccccc2c1=O` the inhibition was 25.5% (ppa; inhibitor, counter-screen, coupling enzyme alone; 30 µM).
The inhibition of `CN(Cc1ccc(/C=C/C(=O)NO)cc1)CC12CC3CC(CC(C3)C1)C2` is reported as -12% (human M2 receptor; antagonist radioligand binding; 0.05 µM).
For `O=C(O)c1ccc(Nc2c(-c3ccc(CON=CC=Cc4cn(Cc5ccccc5)nn4)cc3)nc3cc(-c4ccccc4)ccn23)cc1`, the inhibition was 59.1% (TDP1; enzyme activity, inhibitor; 100 µM, unpurified compound).
With `O=C1C(O)=C(O)C(=O)C(O)=C1O` the inhibition was 91.6 ± 0.1% (Protein tyrosine phosphatase type IVA 3, with CNNM4 CBS domain (PTP4A3, Homo sapiens, UniProt O75365); protein-protein interaction, HTRF; 10 µM).
`C=CC(=O)Nc1cc(-c2nn(C3CCN(CCNC(=O)[C@H](C)CCC45CC6CC(CC(C6)C4)C5)CC3)c3ncnc(N)c23)ccc1Oc1ccccc1` gave an inhibition of 27.6% (STRADA (Homo sapiens, UniProt Q7RTN6); inhibitor, KiNativ profiling; biochemical; 2 µM).
`O=C(O)c1ccc(Nc2c(-c3ccc(CON=Cc4[nH]ncc4Br)cc3)nc3cc(-c4ccccc4)ccn23)cc1` (mixture of isomers) gave an inhibition of 81.1% (TDP1; enzyme activity, inhibitor; 100 µM, unpurified compound).
For `CC(C)NCCCn1c(Sc2cc3c(cc2I)OCO3)nc2c(N)ncnc21`, the inhibition was > 85% (Hsp90; tracer binding, autoradiography; human and mouse tumour sections; 10 µM, added: [11C]HSP990).
The inhibition of `CN(C)C/C=C/C(=O)Nc1ccc2nc(NCCCCCN(C)C)nc(NCCCCCCN(C)C)c2c1` is reported as 84% (EHMT1; enzyme activity, inhibitor, radiometric; 50 µM).
For `COc1ccc(Br)cc1C[N+](C)(C)CCCN1c2ccccc2CCc2ccc(Cl)cc21`, the inhibition was 53.5% (ppa; inhibitor, counter-screen, coupling enzyme alone; 30 µM).
`O=C(O)c1ccc(-c2ccc(O)cc2)c2c1C=C(c1ccc(O)cc1)OC2(c1ccc(O)cc1)c1ccc(O)cc1` gave an inhibition of ≥ 50% (PDE4D (Homo sapiens, UniProt Q08499); enzyme activity, inhibitor; 50 nM).

For quick reference, copied from above:
The inhibition of `CC(C)Cn1c(SCC(=O)N2CCc3ccccc3C2)nc2cc(Cl)ccc2c1=O` is reported as -13% (ADRB2 (Homo sapiens, UniProt P07550); ligand displacement, radioligand; 10 µM).
`COc1ccc(S(=O)(=O)N2CCc3ccccc3C2)cc1N1CCN(C(=O)c2ccc(F)cc2C(F)(F)F)CC1` has an inhibition of 4.7% (ADRB3 (Homo sapiens, UniProt P13945); ligand displacement, radioligand; 1 µM).
`CS(=O)(=O)Nc1cccc(-c2csc3cnc(Nc4ccc(N5CCN(CCCCCOc6cccc7c6C(=O)N(C6CCC(=O)NC6=O)C7=O)CC5)cc4)nc23)c1` (stereo not shown) gave an inhibition of 17.2% (ILK (Homo sapiens, UniProt Q13418); kinase probe labelling, binder, KiNativ ATP-acylphosphate LC-MS; MOLT-4 live cells; 1 µM).
